Experimental data from different studies.
Parts stem from different laboratories: compare values within a part only.

Set 1 — technique: protein binding microarray; molecule type: double-stranded DNA, one strand shown; medium: in vitro; tested at: not given; baseline: not given; direction: higher = stronger binding
Target: Histone acetyltransferase KAT6A, winged helix 2, GST fusion (KAT6A, Homo sapiens, UniProt Q92794, residues 85-181)
Notes: 8-mer, flanks averaged, mean of 2 arrays, mostly near background
Target sequence (chain): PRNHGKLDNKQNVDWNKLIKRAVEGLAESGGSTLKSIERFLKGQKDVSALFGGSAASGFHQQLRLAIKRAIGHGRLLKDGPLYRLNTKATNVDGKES
| Oligonucleotide | E-score |
| --- | --- |
| CAAGTCTA | -0.0972 |
| ACAACCGG | -0.00912 |
| CACCATGA | 0.000435 |
| ATCATACA | 0.114 |
| CAATACTA | -0.0307 |
| GCAAGGTA | -0.0774 |
| CGGACCTA | 0.0626 |
| CCTTAAAG | -0.0893 |
| AACATGGG | -0.0491 |
| CTACCTTA | -0.104 |
| GCAGGAGC | 0.0508 |
| CCTCGAGA | 0.0979 |
| CGGCGCCG | 0.32 |
| ACTCGATG | 0.109 |
| GCACCTCA | 0.126 |
| GCACGAAA | 0.00305 |

Set 2 — technique: universal PBM; molecule type: double-stranded DNA, one strand shown; medium: in vitro; tested at: 600 nM; direction: higher = stronger binding
Target: Sal-like protein 4, full length isoform A (SALL4, Homo sapiens, UniProt Q9UJQ4, residues 1-1053)
Sequence of UniProt Q9UJQ4 (whole entry, looked up): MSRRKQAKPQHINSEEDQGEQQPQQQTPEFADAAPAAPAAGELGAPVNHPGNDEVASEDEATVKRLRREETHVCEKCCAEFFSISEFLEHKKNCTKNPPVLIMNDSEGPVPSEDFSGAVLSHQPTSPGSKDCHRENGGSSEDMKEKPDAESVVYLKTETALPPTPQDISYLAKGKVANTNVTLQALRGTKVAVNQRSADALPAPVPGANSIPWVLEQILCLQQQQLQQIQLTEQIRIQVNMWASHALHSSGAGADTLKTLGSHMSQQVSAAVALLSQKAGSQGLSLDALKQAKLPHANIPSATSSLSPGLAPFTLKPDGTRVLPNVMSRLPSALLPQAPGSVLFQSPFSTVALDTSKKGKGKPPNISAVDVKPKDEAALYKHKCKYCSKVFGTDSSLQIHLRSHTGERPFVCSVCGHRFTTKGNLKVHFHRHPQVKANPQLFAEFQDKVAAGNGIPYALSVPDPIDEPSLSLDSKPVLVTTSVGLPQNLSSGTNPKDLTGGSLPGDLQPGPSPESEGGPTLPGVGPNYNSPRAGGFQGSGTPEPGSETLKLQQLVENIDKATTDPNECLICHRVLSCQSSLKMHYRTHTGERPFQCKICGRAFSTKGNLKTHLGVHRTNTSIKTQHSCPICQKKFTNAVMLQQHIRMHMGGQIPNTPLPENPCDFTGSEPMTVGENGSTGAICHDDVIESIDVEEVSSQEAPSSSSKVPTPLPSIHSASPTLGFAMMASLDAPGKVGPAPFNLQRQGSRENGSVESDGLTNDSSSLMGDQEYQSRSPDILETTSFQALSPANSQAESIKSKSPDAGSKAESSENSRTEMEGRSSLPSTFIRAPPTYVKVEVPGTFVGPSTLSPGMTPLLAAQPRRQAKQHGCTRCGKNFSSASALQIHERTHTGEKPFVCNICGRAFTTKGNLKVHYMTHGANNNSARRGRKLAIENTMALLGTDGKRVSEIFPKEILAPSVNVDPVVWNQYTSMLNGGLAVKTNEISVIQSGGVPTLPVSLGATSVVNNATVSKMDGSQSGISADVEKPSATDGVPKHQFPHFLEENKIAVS
Notes: 8-mer, flanks averaged, mean of replicates
| Oligonucleotide | E-score |
| --- | --- |
| GGCCAAAC | -0.277 |
| CAGGAGGG | -0.255 |
| CAAATGCA | 0.143 |
| ACTACTTG | 0.12 |
| CTTTTCGA | 0.104 |
| GCCTGTTA | 0.00417 |
| ACGATGCT | -0.197 |
| AGTATTGC | 0.119 |
| GTGAGGCA | -0.152 |
| CCGTGCCG | -0.193 |
| GAAGGGCC | -0.339 |
| CCGTTGTC | -0.188 |
| GATTGCCA | -0.156 |

Set 3 — technique: RNA Bind-n-Seq; molecule type: RNA; medium: in vitro; tested at: 200 nM; notes: whole 134-nt RNA, ends assumed; with: 150 mM KCl; baseline: input library; direction: higher = stronger binding
Target: Ras GTPase-activating protein-binding protein 1, full length (G3BP1, Homo sapiens, UniProt Q13283)
Sequence of UniProt Q13283 (whole entry, looked up): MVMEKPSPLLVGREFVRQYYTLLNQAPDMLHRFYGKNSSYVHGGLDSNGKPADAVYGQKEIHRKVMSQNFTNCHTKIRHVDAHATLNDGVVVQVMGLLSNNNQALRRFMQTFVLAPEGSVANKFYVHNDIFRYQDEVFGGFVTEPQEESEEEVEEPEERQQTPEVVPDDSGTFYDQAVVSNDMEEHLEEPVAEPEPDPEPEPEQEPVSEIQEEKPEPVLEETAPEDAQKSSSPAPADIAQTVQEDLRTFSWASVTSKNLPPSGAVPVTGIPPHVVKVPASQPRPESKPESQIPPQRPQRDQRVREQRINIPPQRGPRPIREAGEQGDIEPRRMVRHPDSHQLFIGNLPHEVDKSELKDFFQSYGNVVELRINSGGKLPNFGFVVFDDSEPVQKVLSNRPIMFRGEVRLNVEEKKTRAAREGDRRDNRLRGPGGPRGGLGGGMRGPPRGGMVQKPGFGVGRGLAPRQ
Shared flanks, not repeated: GGGAGUUCUACAGUCCGACGAUC … UGGAAUUCUCGGGUGUCAAGG
| Oligonucleotide | log2 enrichment |
| --- | --- |
| CUCAAGUCCUGUGCUACACAUCGUAUGUACCGAAUCGGUUUGGAAAGGUUUGGAAAGUAUUAUGUUACGCCGUUCGGAUCUGCACUUCCA | -0.577 |
| ACCAUGCAGGUGGGCAUCUUUGGGAAGUGGGGCAAGGGGGGGAUAGGGAGGGGGGUAACACUUUGGGAACAGGUGGUCCCAGGUCAAAUC | 1.03 |
| AGUCCUGUGCUACACAUCGUAUGUACCGAAUCGGCCCCCGGGGCCCCCGGCCCCCGGAAAGUAUUAUGUUACGCCGUUCGGAUCUGCACU | -0.858 |
| CACAGACAACACGCACCCACACAGACACAGAGGGAAGGGGUUGGGAUGGGGACAGGAUGCACAGCAGGGCGGGGUAGGACCCCAGCCCCU | 1.78 |
| UGCCUCCCUGCUGCAGAAAUACACCGACAACAGCGAGAAGCCAUCCGGGAAGAGACUGUGCAAAACCAAACACUUGAUCCCUCAGGAGUC | 0.0889 |
| UGGCCUGCACAUUCAGCUGCAUGAUGAAGUUCACUGUCAAGGACUGUGAUCCCACCACUGGGGAGACUGAUGACGAAGGCUAUGAGGAUG | 0.516 |
| GUCCUGUGCUACACAUCGUAUGUACCGAAUCGGGGAAAGGGGUGGGGUUUUUUUGGGGAAAGUAUUAUGUUACGCCGUUCGGAUCUGCAC | 0.47 |
| GUCCUGUGCUACACAUCGUAUGUACCGAAUCGGGAAAAAGGGUUUUUGGGAAAAAGGGAAAGUAUUAUGUUACGCCGUUCGGAUCUGCAC | -0.611 |

Set 4 — technique: RNA Bind-n-Seq; molecule type: RNA; medium: in vitro; tested at: 365 nM; baseline: no-protein control; direction: higher = stronger binding
Target: RNA binding protein fox-1 homolog 2, RRM domain, GST-SBP tag (RBFOX2, Homo sapiens, UniProt O43251-10, residues 100-194)
Notes: natural RNA segment, single round, ends assumed
Shared flanks, not repeated: GGGAGUUCUACAGUCCGACGAUC … UGGAAUUCUCGGGUGCCAA
Construct (chain): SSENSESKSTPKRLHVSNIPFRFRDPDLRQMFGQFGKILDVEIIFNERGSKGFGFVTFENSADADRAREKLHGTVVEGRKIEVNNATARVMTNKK
| Oligonucleotide | RBNS enrichment (R) |
| --- | --- |
| CAAACAUUCAUGUGGCUUCGCUGGGGAGGAAAAAAAUAAGCACCUACUGUGUGCCAGGCACUAUGAGGCACUUUUCUAUUUAUCCUCUUUUAAGAUAGGACUAAGAGUUC | 0.412 |
| CCUUGUCGUGAAUUCCCUGUUUAUCACUUCCAUGCAUGGUUUUAUGCUUCUCAUUUGUUUAUGUAUUCAUGAAUACUGCAUAGUCCUGAUUCAGAGACUUUUGCUUUGCU | 0.948 |
| AAAAGACAGUUUUCCAUCCUACAGUAAUUGGGAUGAAGAACAAAACAGUUGAUCCUUGUAAAUACAUUAUGCAGAAUAUUUAUUUUUCUUAAAAUGUAUUUUCACAACCC | 0.293 |
| GCAGUCAUUCUCUCUGUACAUCAGAGCUUAGUUCGAAUGGAAUCAUGAAAAUCUCUGAUUCUGACCUCCUAAGGAAAAAUGAAACCCAGAGGAUGUGGUCAUACAGGAUG | 0.304 |
| AUUAUGUACAUCAAAGAUAUCCUAGAUGUAGAGACGAUGGUGUCUGGGAUAAAAGGCAGAGUUAGUUUCUCUCAUAGCAUAUAUUGGCAGAAAUGGUUCUGCAAGAUGCU | 1.61 |
| UUUCUAUUCCCUUUCUAACUGCCCAUCGGGCUCAGAACCCCAAUAAUCCCUUCCUUUCACUAUCUUCUUUUUGGGGGGUAGGUGGAAGGGAUUGACAUUGGAUGGGGGAG | 0.305 |
| UUUUGUGUUGAUCAUUAUUUCCAUUCUUAAUGUGAAAAAAAGUAAUUAUUUAUACUUAUUAUAAAAAGUAUUUGAAAUUUGCACAUUUAAUUGUCCCUAAUAGAAAGCCA | 0.491 |
| UCCAUAUCAGGCUUACCAAGAAUAUGUGCCCUGUUUUUACCCGAGAUUUCUCCACUUGCCUCAAGGCUGGGAACAAACUUCUGUUGGAAUUUUAAAUAGGAUUAUUUGCA | 0.732 |

Some of these lines once more (set 1):
| Oligonucleotide | E-score |
| --- | --- |
| CGGACCTA | 0.0626 |
| CCTTAAAG | -0.0893 |
| AACATGGG | -0.0491 |
| CTACCTTA | -0.104 |
| GCAGGAGC | 0.0508 |
| CCTCGAGA | 0.0979 |
| CGGCGCCG | 0.32 |
